{"data": "Results gathered from unrelated publications", "EGFR del747-752/P753S": "Epidermal growth factor receptor (EGFR, Homo sapiens, UniProt P00533, del747-752/P753S)", "EGFR del746-750": "Epidermal growth factor receptor (EGFR, Homo sapiens, UniProt P00533, del746-750)", "EGFR": "Epidermal growth factor receptor (EGFR, Homo sapiens, UniProt P00533)", "EGFR L858R": "Epidermal growth factor receptor (EGFR, Homo sapiens, UniProt P00533, L858R)", "note": "Compare with care: the assays were run in different laboratories."}
{"SMILES": "CNC1C[S+]2CC[S+]3CC[S+](C1)[Ru-4]321([N]=C=S)[n]2c3ccc(OC)cc3c3c4c(c5cc(F)c[n+]1c5c32)C(=O)NC4=O (stereo not drawn)", "target": "EGFR del747-752/P753S", "technique": "KinomeScan", "tested at": "0.1 µM", "reference": "untreated", "remaining binding [%]": 82}
{"SMILES": "CCN1CCN(Cc2ccc(C(=O)Nc3ccc(C)c(NCc4cnc5[nH]ccc5c4OC)c3)cc2C(F)(F)F)CC1", "target": "EGFR del747-752/P753S", "observed": "binding", "technique": "competition with immobilised ligand", "tested at": "1 µM", "remaining binding [%]": 3.5}
{"SMILES": "CNC(=O)C1CCN(c2cc(C)c(F)cc2NC(=O)c2ccc(-c3cc(O)ccc3C)c(C)c2)CC1", "target": "EGFR del746-750", "observed": "binding", "technique": "competition with immobilised ligand", "tested at": "1 µM", "remaining binding [%]": 95}
{"SMILES": "CNS(=O)(=O)Nc1nccc(Cc2c(C)c3ccc(Oc4ncccc4F)cc3oc2=O)c1F", "target": "EGFR", "observed": "cell-free assay", "technique": "competition with immobilised ligand", "tested at": "10 µM", "remaining binding [%]": 96}
{"SMILES": "CCN1CCN(Cc2ccc(NC(=O)c3ccc(C)c(NC(=O)c4cncc(-c5cccs5)c4)c3)cc2C(F)(F)F)CC1", "target": "EGFR (Homo sapiens, UniProt P00533, A750P/del747-749)", "observed": "binding", "technique": "competition with immobilised ligand", "tested at": "1 µM", "remaining binding [%]": 0.1}
{"SMILES": "CN1CCN(Cc2ccc(NC(=O)c3cccc(C#Cc4cnc(N)c5ncccc45)c3)cc2C(F)(F)F)CC1", "target": "EGFR", "observed": "cell-free assay", "technique": "competition with immobilised ligand", "tested at": "0.5 µM", "remaining binding [%]": 17}
{"SMILES": "Nc1ncc2c(n1)-c1c([nH]c3ccc(C4=CCOCC4)cc13)CCC2", "target": "EGFR L858R", "observed": "binding", "technique": "competition with immobilised ligand", "tested at": "1 µM", "remaining binding [%]": 67}
{"SMILES": "CC(C)=CC1OC(C)(C)C2C=C3C(=O)C(Cl)=CC(O)C3C3C(O)C4OC4C(=O)C132 (stereo not drawn)", "target": "EGFR del746-750", "observed": "cell-free assay", "technique": "competition with immobilised ligand", "tested at": "10 µM", "remaining binding [%]": 52}
{"SMILES": "CC(=O)N1c2ccc(-c3ccc(CNC(=O)c4cn5cc(-c6cnc(N)nc6)nc(N6CCOCC6)c5n4)cc3)cc2CC[C@@H]1C", "target": "EGFR L858R", "technique": "KINOMEscan", "tested at": "10 µM", "remaining binding [%]": 95}
{"SMILES": "C=CC(=O)N1CCc2ccc(-n3c(=O)ccc4cnc5ccc(-c6cnn(C)c6)cc5c43)cc21", "target": "EGFR (Homo sapiens, UniProt P00533, T790M)", "technique": "KINOMEscan", "tested at": "1 µM", "reference": "DMSO control", "remaining binding [%]": 99}
{"SMILES": "COc1ccc(NC(=O)Nc2ccc3c(c2)C(=O)N(C(C)CO)CC(C)C(CN(C)Cc2ccc4c(c2)OCO4)O3)cc1 (stereo not drawn)", "target": "EGFR L858R", "observed": "binding", "technique": "competition with immobilised ligand", "tested at": "10 µM", "remaining binding [%]": 60}
{"SMILES": "COc1c(Cl)cccc1Nc1c(-c2ccncc2C#C[C@@]2(C)CCCN2C(=O)/C=C/CN(C)C)[nH]c2c1C(=O)NCC2", "target": "EGFR L858R", "observed": "cell-free assay", "technique": "competition with immobilised ligand", "tested at": "3 µM", "remaining binding [%]": 0}
